Experimental data collected from several papers.
Each line is one published result; not all experiments were run side by side. In brackets after ≈: the same amount, converted by molar mass.

Structure (SMILES)	organism	test	system	conditions	MIC [µg/mL]
COc1cc(C(=O)O)ccc1NC(=O)c1ccc(NC(=O)c2ccc(NC(=O)[C@H](Cc3c[nH]nn3)NC(=O)c3ccc(NC(=O)/C(C)=C/c4ccc(O)cc4)cc3)cc2)cc1O	Enterococcus faecium	broth microdilution	ciprofloxacin-resistant		32 (≈ 38.1 µM)
Cc1c(CN(C)C(=O)/C=C/c2cnc3c(c2)CC(N)C(=O)N3)oc2ccccc12 (stereo not drawn)	Escherichia coli	microbial growth, broth dilution	MG1655	clinical isolate	4 (≈ 10.2 µM)
CN[C@H](CC(C)C)C(=O)N[C@H]1C(=O)N[C@@H](CC(N)=O)C(=O)N[C@H]2C(=O)N[C@H]3C(=O)N[C@H](C(=O)N[C@H](C(=O)O)c4cc(O)cc(O)c4-c4cc3ccc4O)[C@H](O)c3ccc(c(Cl)c3)Oc3cc2cc(c3O[C@@H]2O[C@H](CO)[C@@H](O)[C@H](O)[C@H]2O[C@H]2C[C@](C)(NCc3ccc(-c4ccc(Cl)cc4)cc3)[C@H](O)[C@H](C)O2)Oc2ccc(cc2Cl)[C@H]1O	Enterococcus faecium		VanA VRE ATCC BAA-2317	no LTA, with: Mg2+ 100 µg/mL	2.5 (≈ 1.52 µM)
C#CCNC(=O)C(C)(C)O/N=C(\C(=O)N[C@@H]1C(=O)N(S(=O)(=O)O)[C@H]1C)c1csc(N)n1	Enterobacter cloacae	agar dilution	ATCC 43560 susceptible		2 (≈ 4.23 µM)
COc1c(NC(=O)c2ccc(NC(=O)c3ccc(NC(=O)[C@H](Cc4c[nH]nn4)NC(=O)c4ccc(NC(=O)/C(C)=C/c5ccc(O)cc5)cc4)cc3)cc2)ccc(C(=O)O)c1O	Enterococcus faecium	broth microdilution	ciprofloxacin-resistant		32 (≈ 38.1 µM)
CC1(C)[C@H](NC(=O)/C(=N\OCC(=O)N2CCC(C(=O)O)CC2)c2csc(N)n2)C(=O)N1OS(=O)(=O)O	Enterobacter cloacae	agar dilution	ATCC 43560, susceptible		1 (≈ 1.82 µM)
CC[C@H](C)[C@@H]1NC(=O)[C@@H]([C@@H](C)O)NC(=O)CNC(=O)[C@H](CC(=O)O)NC(=O)CNC(=O)[C@H](CC(=O)O)NC(=O)CNC(=O)[C@H]2CCCCN2C(=O)[C@@H](NC(=O)[C@H](CC(=O)O)NC(=O)/C=C/CCCCCCCCCC(C)C)CNC(=O)[C@@H]2CCCN2C1=O	Enterococcus	broth microdilution	VRE 155, Mueller-Hinton broth, Mg2+ 10 mg/L	16 h, with: Ca2+ 0 mM	> 128
COc1cc(C(=O)O)ccc1NC(=O)c1ccc(NC(=O)c2ccc(NC(=O)[C@H](Cc3c[nH]nn3)NC(=O)c3ccc(NC(=O)/C(C)=C/c4ccc(O)cc4)cc3)cc2)c(OC)c1	Enterococcus faecium	broth microdilution	ciprofloxacin-sensitive		32 (≈ 37.5 µM)
C=CCO/N=C(\C(=O)N[C@@H]1C(=O)N(OS(=O)(=O)O)C1(C)C)c1nsc(N)n1	Enterobacter cloacae	agar dilution	CDC 1000654		1 (≈ 2.38 µM)

Some of these lines once more:
Structure (SMILES)	organism	test	system	conditions	MIC [µg/mL]
Cc1c(CN(C)C(=O)/C=C/c2cnc3c(c2)CC(N)C(=O)N3)oc2ccccc12 (stereo not drawn)	Escherichia coli	microbial growth, broth dilution	MG1655	clinical isolate	4 (≈ 10.2 µM)
